Measured values of several laboratories.
Every numbered part comes from another study and shows a few of its results, in no order. Positions count from the first letter of the parent shown.

Sample 1
Target: Histone acetyltransferase KAT6A, winged helix 1, GST fusion (KAT6A, Homo sapiens, UniProt Q92794, residues 1-85)
Method: protein binding microarray
Form: double-stranded DNA, one strand shown
Medium: in vitro
Tested at: not given
Setting: 8-mer, flanks averaged, mean of 2 arrays, mostly near background
Reference: not given
Direction: higher = stronger binding
Endpoint: E-score
Construct (chain): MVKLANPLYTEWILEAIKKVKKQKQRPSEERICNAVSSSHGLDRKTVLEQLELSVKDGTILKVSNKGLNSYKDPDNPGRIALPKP
CGAAGACC: -0.102
AGTGTTCG: -0.064
GCAAGAGA: -0.102
GCCAATAA: -0.182
ACGGCCAG: 0.228
GCGGATAA: 0.243
TGTCCACA: -0.213
ACGAACCT: -0.0832
TCTAGAGA: -0.285
AACTGCTG: -0.0955
GCCAACAC: -0.0112
CCGAGACG: 0.207
GCAGCCGA: 0.244
GTAACTGA: -0.1
GACTCAGC: -0.0194
AAGCTACG: 0.174
AAAACTTA: -0.263

Sample 2
Target: ATF7, bZIP domain (human)
Method: DHFR protein complementation
Medium: yeast
Setting: single substitutions, most at no-binding floor
Reference: wild-type JUN-FOS pair
Direction: higher = stronger binding
Endpoint: binding fitness
Starting sequence: JUN, bZIP domain (human); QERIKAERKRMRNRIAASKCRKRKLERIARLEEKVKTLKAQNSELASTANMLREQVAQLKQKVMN; partner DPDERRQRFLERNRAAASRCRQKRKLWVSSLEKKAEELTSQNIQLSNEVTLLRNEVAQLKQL
E44L: -1.09 natural log
K36S: -0.945 natural log
K39G: -1.2 natural log
K39L: -1.05 natural log
K34S: -1.19 natural log
M51H: -1.05 natural log
R30L: -0.807 natural log
S43Q: -0.677 natural log
K34G: -1.39 natural log
E33R: -1.15 natural log
L38S: -1.6 natural log
S47M: -0.861 natural log
L45K: -1.53 natural log
K39I: -0.97 natural log

Sample 3
Target: CCNA2, cyclin fold, Cln2 fusion (human)
Method: yeast growth competition, sequencing
Medium: yeast
Setting: strong parent motif
Reference: not given
Direction: higher = stronger binding
Endpoint: normalised enrichment score
Starting sequence: BRCA2 docking peptide (human); PSIKRNLLNEFDR
PSIKRNLLNEFDH [R13H]: 4.8
PSIKRNLLAEFDR [N9A]: 6.04
PSIKRNLLNKFDR [E10K]: 0.53
PSIKRNLENEFDR [L8E]: 3.57
PSIKRNLLNEFDV [R13V]: 4.37
PSWKRNLLNEFDR [I3W]: 5.2
PSIKRNTLNEFDR [L7T]: 0.416
PSIKRWLLNEFDR [N6W]: 1.42
PSIKRNLLNEFDL [R13L]: 4.19
PSIKRNLLNEFRR [D12R]: 3.66
PSIKRNLLNEIDR [F11I]: 2.07
PVIKRNLLNEFDR [S2V]: 3.35
GSIKRNLLNEFDR [P1G]: 4.74
PSIKRNLLNEFLR [D12L]: 2.54
TSIKRNLLNEFDR [P1T]: 4.91
PSIKRNELNEFDR [L7E]: -0.923

Sample 4
Target: Signal transducer and activator of transcription 1-alpha/beta, full length (STAT1, Homo sapiens, UniProt P42224, residues 1-750)
Sequence of UniProt P42224 (whole entry, looked up): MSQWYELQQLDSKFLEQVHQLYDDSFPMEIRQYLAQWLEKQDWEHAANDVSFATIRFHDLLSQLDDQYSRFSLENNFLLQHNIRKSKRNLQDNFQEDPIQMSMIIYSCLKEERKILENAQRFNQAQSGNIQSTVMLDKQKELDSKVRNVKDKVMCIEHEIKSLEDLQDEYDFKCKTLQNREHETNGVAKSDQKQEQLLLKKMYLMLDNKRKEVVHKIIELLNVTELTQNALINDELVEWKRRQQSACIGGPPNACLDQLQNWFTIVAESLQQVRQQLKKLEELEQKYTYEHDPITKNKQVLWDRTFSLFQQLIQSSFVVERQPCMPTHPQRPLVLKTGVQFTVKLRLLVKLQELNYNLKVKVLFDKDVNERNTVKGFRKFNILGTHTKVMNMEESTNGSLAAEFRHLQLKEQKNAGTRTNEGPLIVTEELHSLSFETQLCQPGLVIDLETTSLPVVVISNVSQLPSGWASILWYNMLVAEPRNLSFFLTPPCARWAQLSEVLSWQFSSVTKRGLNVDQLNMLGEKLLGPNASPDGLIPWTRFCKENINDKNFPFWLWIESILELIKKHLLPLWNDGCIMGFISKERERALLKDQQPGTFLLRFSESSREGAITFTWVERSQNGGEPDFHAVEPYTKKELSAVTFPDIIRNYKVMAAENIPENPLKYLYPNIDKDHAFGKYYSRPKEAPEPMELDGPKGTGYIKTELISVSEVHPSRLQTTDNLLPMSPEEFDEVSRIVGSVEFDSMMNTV
Method: protein-binding microarray
Form: hairpin DNA
Medium: in vitro
Tested at: not given
Setting: whole hairpin DNA, median over replicate spots
Reference: not given
Direction: higher = stronger binding
Endpoint: median fluorescence
Shared flanks, not repeated: GAGGCC … GGCCTCACACTCTTTCCCTACACG
TTTCCCTGAAGCCTCCTGGCTTCAGGGAAA: 1200 a.u.
TTTCCCGGGAGCCTCCTGGCTCCCGGGAAA (5mC at 28): 1040 a.u.
TCACCCGGAAGCCTCCTGGCTTCCGGGTGA: 918 a.u.
TTTCCCCGAAGCCTCCTGGCTTCGGGGAAA (5mC at 29): 3060 a.u.
TTTCCCGGAAGCCTCCTGGCTTCCGGGAAA (5mC at 12 30): 3000 a.u.
TCGCCCGGAAGCCTCCTGGCTTCCGGGCGA (5mC at 34): 972 a.u.
CCTCCCGGAAGCCTCCTGGCTTCCGGGAGG (5mC at 7): 1470 a.u.
TTTCCCGCGAGCCTCCTGGCTCGCGGGAAA: 941 a.u.
CGTCCCGGAAGCCTCCTGGCTTCCGGGACG (5mC at 35): 1110 a.u.
CCTCCCGGAAGCCTCCTGGCTTCCGGGAGG: 1220 a.u.
TTTCCCCCAAGCCTCCTGGCTTGGGGGAAA (5mC at 13): 886 a.u.
TTTCCCGGTAGCCTCCTGGCTACCGGGAAA: 2620 a.u.

Sample 5
Target: ABI1, truncated, D143A, DHFR fusion (Arabidopsis thaliana)
Method: DHFR PCA, deep sequencing
Medium: yeast
Setting: methotrexate growth selection, single substitutions
Together with: (+)-ABA 200 µM
Reference: wild-type fitted maximum
Direction: higher = stronger binding
Endpoint: relative binding score
Starting sequence: PYL1, truncated, DHFR fusion (Arabidopsis thaliana); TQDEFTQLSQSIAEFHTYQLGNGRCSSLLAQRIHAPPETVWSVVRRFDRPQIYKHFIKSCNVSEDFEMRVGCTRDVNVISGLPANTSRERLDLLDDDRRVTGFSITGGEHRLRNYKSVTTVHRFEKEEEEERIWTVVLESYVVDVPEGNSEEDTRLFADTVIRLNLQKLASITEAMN; partner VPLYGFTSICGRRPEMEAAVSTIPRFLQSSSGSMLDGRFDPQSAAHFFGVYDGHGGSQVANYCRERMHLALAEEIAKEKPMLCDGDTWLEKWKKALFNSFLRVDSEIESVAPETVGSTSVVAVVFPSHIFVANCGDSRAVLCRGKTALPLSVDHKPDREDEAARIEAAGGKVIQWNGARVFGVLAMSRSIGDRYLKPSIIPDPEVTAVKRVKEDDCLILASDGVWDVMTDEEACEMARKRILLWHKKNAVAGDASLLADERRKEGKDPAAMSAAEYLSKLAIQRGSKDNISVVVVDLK
K126H: 109%
E174A: 94.5%
R49N: 97.5%
L91A: 7.24%
R69C: 103%
E151V: 97.8%
R163F: 29.1%
T101D: 3.78%
K168C: 96.3%
K58W: 72.1%
S117G: 57.2%
V121K: -1.99%
A84N: 30.7%
I33S: 18.5%
T73C: 107%

Sample 6
Target: Ras GTPase-activating protein-binding protein 1, full length (G3BP1, Homo sapiens, UniProt Q13283)
Sequence of UniProt Q13283 (whole entry, looked up): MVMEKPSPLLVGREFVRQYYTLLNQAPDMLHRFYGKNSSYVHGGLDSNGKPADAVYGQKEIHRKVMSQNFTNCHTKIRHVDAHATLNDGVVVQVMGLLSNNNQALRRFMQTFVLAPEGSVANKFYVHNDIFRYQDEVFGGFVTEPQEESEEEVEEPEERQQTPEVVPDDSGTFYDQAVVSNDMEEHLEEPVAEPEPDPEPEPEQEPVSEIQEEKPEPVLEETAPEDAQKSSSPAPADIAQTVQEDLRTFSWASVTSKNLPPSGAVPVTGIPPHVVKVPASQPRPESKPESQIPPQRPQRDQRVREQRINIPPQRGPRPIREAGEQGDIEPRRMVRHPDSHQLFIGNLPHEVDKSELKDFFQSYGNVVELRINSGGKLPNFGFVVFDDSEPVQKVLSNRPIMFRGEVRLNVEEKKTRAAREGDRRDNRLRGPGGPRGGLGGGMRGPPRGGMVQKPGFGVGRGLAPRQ
Method: RNA Bind-n-Seq
Form: RNA
Medium: in vitro
Tested at: 200 nM
Setting: whole 134-nt RNA, ends assumed
Together with: 150 mM LiCl
Reference: input library
Direction: higher = stronger binding
Endpoint: log2 enrichment
All molecules: 7-deaza-guanosine replaces G
Shared flanks, not repeated: GGGAGUUCUACAGUCCGACGAUC … UGGAAUUCUCGGGUGUCAAGG
AAACUUUAGAGGAGGAUCUGAUGGAUAUGGCAGUGGACGUGGAUUUGGGGAUGGCUAUAAUGGGUAUGGAGGAGGACCUGGAGGUGGCAA: -0.18
UCCUGUGCUACACAUCGUAUGUACCGAAUCGGAAAAAAAGGAAAAAAAGGGAAAAAAAGGAAAGUAUUAUGUUACGCCGUUCGGAUCUGC: -0.422
CACAGACAAAAAGCACCCACACAGACACAGAGGGAAGGGGUUGGGAUGGGGACAGGGUGCACAGCAGGGCGGGGUAGGACCCCAGCCCCU: 0.326
GGGUGGACACUGACGAGCUGGACAGCAACGUGGACGACUGGGAAGAGGAGACCAUUGAGUUCUUCGUCACUGAAGAAAUCAUUCCCCUCG: -2.36
UGGCCCUGGUGGCAUGCGGGGAGGAAGAGGUGGCCUCAUGGAUCCUGGUGGUCCCGGUGGAAUGUUCAGAGGUGGCCGUGGUGGAGACAG: -0.337
GCAGGAAGUAAAAACAAAUGGAAAUGCUUCGGAUAGUGGCAGGGGCGGGGGUUGCUAAGGAAAGGGUGGGAUGGGAGUGGGUAAAGAGUU: -0.0988
GUCCUGUGCUACACAUCGUAUGUACCGAAUCGGGGUUUGGGGAGGGGUUUUUUUGGGGAAAGUAUUAUGUUACGCCGUUCGGAUCUGCAC: 0.0362
UCUCAGCAGGCGCAUCUACACUAGUGACCUGAGGAGAGAAACCCUAACCCCACAAUGGCUGCAUCUUCUCUGAAGACGAGACUGAUGCUC: 1.23
UCCUGUGCUACACAUCGUAUGUACCGAAUCGGGCCCCCCGGGCCCCCCGGCCCCCCGGGAAAGUAUUAUGUUACGCCGUUCGGAUCUGCA: -0.526
ACCAUGCAGGUGGGCAUCUUUAAAAAGUGGGGCAAGGGGGGGAUAGGGAGGGGGGUAACACUUUGGGAACAGGUGGUCCCAGGUCGUUUC: 0.437
AAGUCCUGUGCUACACAUCGUAUGUACCGAAUCGGGAAAAGGAAAAGGGAAAAGGGGAAAGUAUUAUGUUACGCCGUUCGGAUCUGCACU: 0.49

Some of these lines once more (sample 6):
UCCUGUGCUACACAUCGUAUGUACCGAAUCGGGCCCCCCGGGCCCCCCGGCCCCCCGGGAAAGUAUUAUGUUACGCCGUUCGGAUCUGCA: -0.526
UGGCCCUGGUGGCAUGCGGGGAGGAAGAGGUGGCCUCAUGGAUCCUGGUGGUCCCGGUGGAAUGUUCAGAGGUGGCCGUGGUGGAGACAG: -0.337
UCCUGUGCUACACAUCGUAUGUACCGAAUCGGAAAAAAAGGAAAAAAAGGGAAAAAAAGGAAAGUAUUAUGUUACGCCGUUCGGAUCUGC: -0.422
GUCCUGUGCUACACAUCGUAUGUACCGAAUCGGGGUUUGGGGAGGGGUUUUUUUGGGGAAAGUAUUAUGUUACGCCGUUCGGAUCUGCAC: 0.0362
GCAGGAAGUAAAAACAAAUGGAAAUGCUUCGGAUAGUGGCAGGGGCGGGGGUUGCUAAGGAAAGGGUGGGAUGGGAGUGGGUAAAGAGUU: -0.0988
CACAGACAAAAAGCACCCACACAGACACAGAGGGAAGGGGUUGGGAUGGGGACAGGGUGCACAGCAGGGCGGGGUAGGACCCCAGCCCCU: 0.326
GGGUGGACACUGACGAGCUGGACAGCAACGUGGACGACUGGGAAGAGGAGACCAUUGAGUUCUUCGUCACUGAAGAAAUCAUUCCCCUCG: -2.36
AAACUUUAGAGGAGGAUCUGAUGGAUAUGGCAGUGGACGUGGAUUUGGGGAUGGCUAUAAUGGGUAUGGAGGAGGACCUGGAGGUGGCAA: -0.18
ACCAUGCAGGUGGGCAUCUUUAAAAAGUGGGGCAAGGGGGGGAUAGGGAGGGGGGUAACACUUUGGGAACAGGUGGUCCCAGGUCGUUUC: 0.437
UCUCAGCAGGCGCAUCUACACUAGUGACCUGAGGAGAGAAACCCUAACCCCACAAUGGCUGCAUCUUCUCUGAAGACGAGACUGAUGCUC: 1.23
AAGUCCUGUGCUACACAUCGUAUGUACCGAAUCGGGAAAAGGAAAAGGGAAAAGGGGAAAGUAUUAUGUUACGCCGUUCGGAUCUGCACU: 0.49
